Measured values gathered from unrelated publications.
Every numbered part comes from another study and shows a few of its results, in no order.
Sequence of UniProt O75116 (whole entry, looked up): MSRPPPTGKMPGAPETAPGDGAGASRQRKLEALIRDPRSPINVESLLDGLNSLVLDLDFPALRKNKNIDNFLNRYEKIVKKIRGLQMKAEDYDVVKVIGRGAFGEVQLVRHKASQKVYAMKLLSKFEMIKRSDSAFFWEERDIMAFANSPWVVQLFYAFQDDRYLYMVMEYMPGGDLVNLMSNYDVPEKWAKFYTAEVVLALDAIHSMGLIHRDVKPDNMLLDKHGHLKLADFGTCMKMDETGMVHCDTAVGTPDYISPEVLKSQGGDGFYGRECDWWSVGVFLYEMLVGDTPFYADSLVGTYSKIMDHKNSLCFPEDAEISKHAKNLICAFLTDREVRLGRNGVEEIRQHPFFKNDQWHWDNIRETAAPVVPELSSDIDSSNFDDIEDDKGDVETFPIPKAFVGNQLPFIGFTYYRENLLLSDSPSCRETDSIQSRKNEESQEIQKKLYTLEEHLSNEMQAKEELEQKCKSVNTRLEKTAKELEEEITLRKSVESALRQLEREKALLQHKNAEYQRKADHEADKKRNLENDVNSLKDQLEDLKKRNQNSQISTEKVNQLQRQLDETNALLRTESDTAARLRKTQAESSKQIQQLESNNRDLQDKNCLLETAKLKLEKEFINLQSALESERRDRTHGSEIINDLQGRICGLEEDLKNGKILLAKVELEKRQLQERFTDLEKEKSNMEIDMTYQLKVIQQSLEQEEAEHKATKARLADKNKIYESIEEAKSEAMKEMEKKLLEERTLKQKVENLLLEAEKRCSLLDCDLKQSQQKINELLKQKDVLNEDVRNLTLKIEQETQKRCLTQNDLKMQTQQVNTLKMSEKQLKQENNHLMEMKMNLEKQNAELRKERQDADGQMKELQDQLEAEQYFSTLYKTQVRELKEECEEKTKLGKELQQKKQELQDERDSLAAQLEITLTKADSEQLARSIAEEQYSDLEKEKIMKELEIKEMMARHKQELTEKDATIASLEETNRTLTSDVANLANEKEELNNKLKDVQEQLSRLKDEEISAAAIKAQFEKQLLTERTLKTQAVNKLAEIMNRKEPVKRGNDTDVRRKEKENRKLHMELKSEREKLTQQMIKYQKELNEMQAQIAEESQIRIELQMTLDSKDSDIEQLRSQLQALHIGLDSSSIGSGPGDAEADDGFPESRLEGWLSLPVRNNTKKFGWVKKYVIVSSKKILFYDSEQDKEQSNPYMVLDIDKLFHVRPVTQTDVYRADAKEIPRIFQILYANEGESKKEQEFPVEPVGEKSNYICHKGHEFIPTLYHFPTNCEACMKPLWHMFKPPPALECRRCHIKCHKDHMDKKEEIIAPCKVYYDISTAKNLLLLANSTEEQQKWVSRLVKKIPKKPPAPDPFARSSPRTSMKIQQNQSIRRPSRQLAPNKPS
Sequence of UniProt Q15208 (whole entry, looked up): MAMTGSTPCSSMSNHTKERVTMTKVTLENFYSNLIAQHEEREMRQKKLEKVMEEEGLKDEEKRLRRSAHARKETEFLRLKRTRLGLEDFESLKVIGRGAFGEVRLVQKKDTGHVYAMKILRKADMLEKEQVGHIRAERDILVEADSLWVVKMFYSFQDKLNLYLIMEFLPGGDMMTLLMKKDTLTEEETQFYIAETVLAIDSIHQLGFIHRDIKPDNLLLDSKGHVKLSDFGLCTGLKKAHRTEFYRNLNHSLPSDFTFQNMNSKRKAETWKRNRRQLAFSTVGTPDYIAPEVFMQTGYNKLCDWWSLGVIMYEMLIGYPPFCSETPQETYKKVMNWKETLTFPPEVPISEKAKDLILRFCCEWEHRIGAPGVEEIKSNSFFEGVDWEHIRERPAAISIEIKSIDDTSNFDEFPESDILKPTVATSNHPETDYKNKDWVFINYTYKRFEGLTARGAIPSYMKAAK
Sequence of UniProt Q12851 (whole entry, looked up): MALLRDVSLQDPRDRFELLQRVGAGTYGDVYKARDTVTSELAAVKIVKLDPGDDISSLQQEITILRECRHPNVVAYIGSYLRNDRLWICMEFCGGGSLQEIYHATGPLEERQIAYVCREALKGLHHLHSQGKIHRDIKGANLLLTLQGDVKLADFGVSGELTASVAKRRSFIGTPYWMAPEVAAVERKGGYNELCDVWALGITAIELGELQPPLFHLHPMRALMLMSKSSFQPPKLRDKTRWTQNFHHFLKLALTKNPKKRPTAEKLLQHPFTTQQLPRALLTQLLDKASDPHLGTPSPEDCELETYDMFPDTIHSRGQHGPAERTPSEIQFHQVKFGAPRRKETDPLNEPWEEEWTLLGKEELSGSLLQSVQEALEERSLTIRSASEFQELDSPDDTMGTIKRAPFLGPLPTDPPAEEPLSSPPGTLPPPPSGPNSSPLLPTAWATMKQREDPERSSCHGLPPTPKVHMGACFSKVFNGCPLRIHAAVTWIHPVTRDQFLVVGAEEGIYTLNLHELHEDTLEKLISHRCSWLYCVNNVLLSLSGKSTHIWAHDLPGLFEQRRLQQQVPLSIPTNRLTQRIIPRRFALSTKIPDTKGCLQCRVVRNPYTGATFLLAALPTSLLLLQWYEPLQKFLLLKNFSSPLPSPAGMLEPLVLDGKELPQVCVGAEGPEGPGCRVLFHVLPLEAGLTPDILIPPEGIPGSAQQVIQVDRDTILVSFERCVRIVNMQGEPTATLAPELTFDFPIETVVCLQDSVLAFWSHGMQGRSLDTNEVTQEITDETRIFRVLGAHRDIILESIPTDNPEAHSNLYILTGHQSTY
Sequence of UniProt Q9Y616 (whole entry, looked up): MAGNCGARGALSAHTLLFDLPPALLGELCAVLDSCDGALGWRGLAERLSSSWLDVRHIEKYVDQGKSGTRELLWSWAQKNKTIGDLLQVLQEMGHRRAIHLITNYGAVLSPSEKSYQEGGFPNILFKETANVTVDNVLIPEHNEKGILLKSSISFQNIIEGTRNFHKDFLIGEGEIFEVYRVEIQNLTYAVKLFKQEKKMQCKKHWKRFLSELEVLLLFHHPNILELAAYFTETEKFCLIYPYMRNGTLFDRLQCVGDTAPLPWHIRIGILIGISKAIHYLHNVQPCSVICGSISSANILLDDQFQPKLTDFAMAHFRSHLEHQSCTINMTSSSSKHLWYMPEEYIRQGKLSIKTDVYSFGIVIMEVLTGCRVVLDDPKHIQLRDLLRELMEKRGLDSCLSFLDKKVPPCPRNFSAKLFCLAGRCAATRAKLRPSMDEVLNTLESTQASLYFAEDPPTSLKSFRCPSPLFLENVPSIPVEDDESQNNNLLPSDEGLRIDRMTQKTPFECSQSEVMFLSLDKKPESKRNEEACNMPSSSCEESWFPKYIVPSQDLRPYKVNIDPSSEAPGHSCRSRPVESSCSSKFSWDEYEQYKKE
Sequence of UniProt Q00532 (whole entry, looked up): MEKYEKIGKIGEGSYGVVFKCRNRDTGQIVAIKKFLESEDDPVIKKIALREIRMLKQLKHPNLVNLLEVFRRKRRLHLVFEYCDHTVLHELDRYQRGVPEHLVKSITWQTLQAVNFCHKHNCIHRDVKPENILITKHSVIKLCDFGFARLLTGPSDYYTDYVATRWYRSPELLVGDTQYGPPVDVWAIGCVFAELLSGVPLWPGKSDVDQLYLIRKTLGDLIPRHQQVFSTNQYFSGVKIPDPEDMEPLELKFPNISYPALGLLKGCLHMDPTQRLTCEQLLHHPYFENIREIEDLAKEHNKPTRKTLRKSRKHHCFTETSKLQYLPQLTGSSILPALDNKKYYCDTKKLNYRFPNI

Set 1 — method: universal PBM; form: double-stranded DNA, one strand shown; medium: in vitro; tested at: 600 nM; reading: higher = stronger binding
Target: Sal-like protein 4, full length isoform A (SALL4, Homo sapiens, UniProt Q9UJQ4, residues 1-1053)
Sequence of UniProt Q9UJQ4 (whole entry, looked up): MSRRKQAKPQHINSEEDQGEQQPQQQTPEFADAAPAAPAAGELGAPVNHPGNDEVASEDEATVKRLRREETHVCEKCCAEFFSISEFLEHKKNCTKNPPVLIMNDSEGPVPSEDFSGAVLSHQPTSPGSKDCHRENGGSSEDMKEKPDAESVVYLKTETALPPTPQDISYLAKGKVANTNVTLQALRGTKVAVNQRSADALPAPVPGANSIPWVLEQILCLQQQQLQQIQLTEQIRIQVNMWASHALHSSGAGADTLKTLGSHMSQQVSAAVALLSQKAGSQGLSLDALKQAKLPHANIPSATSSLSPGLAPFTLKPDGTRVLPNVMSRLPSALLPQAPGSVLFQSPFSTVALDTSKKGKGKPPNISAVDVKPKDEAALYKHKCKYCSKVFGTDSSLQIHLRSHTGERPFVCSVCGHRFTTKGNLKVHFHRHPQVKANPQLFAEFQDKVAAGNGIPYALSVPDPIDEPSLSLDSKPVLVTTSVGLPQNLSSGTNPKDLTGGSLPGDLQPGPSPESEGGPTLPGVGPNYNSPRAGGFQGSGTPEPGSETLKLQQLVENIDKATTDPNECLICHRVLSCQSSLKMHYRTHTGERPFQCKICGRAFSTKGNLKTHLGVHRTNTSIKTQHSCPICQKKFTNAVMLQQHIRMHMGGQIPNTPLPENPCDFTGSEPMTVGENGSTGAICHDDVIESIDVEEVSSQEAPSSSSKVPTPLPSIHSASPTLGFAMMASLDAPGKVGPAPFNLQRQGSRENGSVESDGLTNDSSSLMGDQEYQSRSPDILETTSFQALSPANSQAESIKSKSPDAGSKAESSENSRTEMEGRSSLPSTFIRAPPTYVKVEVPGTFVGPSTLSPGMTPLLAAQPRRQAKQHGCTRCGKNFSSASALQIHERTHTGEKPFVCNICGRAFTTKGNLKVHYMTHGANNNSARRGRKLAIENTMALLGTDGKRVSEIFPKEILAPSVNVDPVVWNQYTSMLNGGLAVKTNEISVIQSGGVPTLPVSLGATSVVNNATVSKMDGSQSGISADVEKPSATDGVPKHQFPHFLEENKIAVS
Setting: 8-mer, flanks averaged, mean of replicates
Oligonucleotide | E-score
CTCTCTCA | 0.0803
ATGACCTC | -0.125
CGTAAGGA | 0.0242
CGCCGTCA | -0.257
CCAGTCCG | -0.237
AGAACGGC | -0.2
ATGGTTGG | -0.049
GAACCTGA | -0.172

Set 2 — read-out: enzyme activity; action: inhibitor; tested at: 0.5 µM; baseline: control
Target: Serine/threonine-protein kinase Nek6 (NEK6, Homo sapiens, UniProt Q9HC98)
Sequence of UniProt Q9HC98 (whole entry, looked up): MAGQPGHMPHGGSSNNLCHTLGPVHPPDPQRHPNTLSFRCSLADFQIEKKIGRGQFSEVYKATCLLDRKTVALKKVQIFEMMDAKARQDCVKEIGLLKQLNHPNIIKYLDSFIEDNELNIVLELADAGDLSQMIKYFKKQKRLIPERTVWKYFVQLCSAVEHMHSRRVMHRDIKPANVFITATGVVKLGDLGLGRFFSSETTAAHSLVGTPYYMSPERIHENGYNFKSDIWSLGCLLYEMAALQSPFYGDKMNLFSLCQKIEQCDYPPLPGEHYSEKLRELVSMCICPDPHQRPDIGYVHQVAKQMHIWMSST
Structure (SMILES) | remaining activity [%]
COc1cc2nccc(Oc3ccc(NC(=S)NC(=O)c4ccccc4C)cc3)c2cc1OC | 92.4
C#Cc1cccc(Nc2ncnc3cc(OCCOC)c(OCCOC)cc23)c1 | 89.1
Nc1[nH]nc2nc3ccccc3nc12 | 95.5
Cn1c2ccccc2c2c3c(c4c5ccccc5n(CCC#N)c4c21)CNC3=O | 103
Nc1ncnc2n[nH]c(Nc3ccc(F)cc3)c12 | 102
Cc1nc(-c2ccccc2)c(-c2ccncc2)o1 | 94.4
Cn1sc(=O)n(Cc2ccccc2)c1=O | 102
NCCNc1ncc(C(N)=O)c(Nc2cccc(C(F)(F)F)c2)n1 | 105
Cc1ccc(NC(=O)c2ccc(CN3CCN(C)CC3)cc2)cc1Nc1nc(-c2cccnc2)cs1 | 91.3
O=C1NC(=O)C(c2cn(CCCn3ccnc3)c3ccccc23)=C1Nc1ccccc1 | 93.6
Nc1ccc2ncnc(NCCc3ccc(Oc4ccccc4)cc3)c2c1 | 103
CNC(=O)c1cc(Oc2ccc(NC(=O)Nc3ccc(Cl)c(C(F)(F)F)c3)cc2)ccn1 | 105
CCOC(=O)c1c(C)[nH]c(/C=C2\C(=O)Nc3ccccc32)c1C | 98.1

Set 3 — method: competition with immobilised ligand; tested at: 0.1 µM
SMILES: C[C@@H]1CN(c2cc(-c3n[nH]c4ccc(OC5(C)CC5)cc34)ncn2)C[C@H](C)O1
target | assay | remaining binding [%]
Tyrosine-protein kinase JAK1, JH1 (JAK1, Homo sapiens, UniProt P23458) | cell-free assay | 88
IRAK3 (Homo sapiens, UniProt Q9Y616) | cell-free assay | 94
PRKCQ (Homo sapiens, UniProt Q04759) | cell-free assay | 74
ROCK2 (Homo sapiens, UniProt O75116) | cell-free assay | 89
CAMKK1 (Homo sapiens, UniProt Q8N5S9) | cell-free assay | 100
ERBB2 (Homo sapiens, UniProt P04626) | cell-free assay | 77
ERBB3 (Homo sapiens, UniProt P21860) | cell-free assay | 100
MAP4K2 (Homo sapiens, UniProt Q12851) | cell-free assay | 76
CILK1 (Homo sapiens, UniProt Q9UPZ9) | cell-free assay | 62
STK38 (Homo sapiens, UniProt Q15208) | cell-free assay | 87
CDKL1 (Homo sapiens, UniProt Q00532) | cell-free assay | 89
MAP2K7 (Homo sapiens, UniProt O14733) | cell-free assay | 77
BMPR1A (Homo sapiens, UniProt P36894) | cell-free assay | 100
STK16 (Homo sapiens, UniProt O75716) | cell-free assay | 100
CASK (Homo sapiens, UniProt O14936) | cell-free assay | 59
STK24 (Homo sapiens, UniProt Q9Y6E0) | cell-free assay | 96
Tyrosine-protein kinase ABL1, phosphorylated (ABL1, Homo sapiens, UniProt P00519, E255K) | binding | 66

Set 4 — method: RNA Bind-n-Seq; form: RNA; medium: in vitro; tested at: 20 nM; setting: 6-mer, flanks averaged, single round; with: 150 mM LiCl; baseline: input library; reading: higher = stronger binding
Target: TAR DNA-binding protein 43, full length, His tag (TARDBP, Homo sapiens, UniProt Q13148, residues 1-414)
Oligonucleotide | 6-mer enrichment (R)
AGCAGA | 0.898
UUUAAU | 1.1
GCUUCC | 0.896
UUGGCU | 1
GUCGUU | 1.03
UUCUAU | 0.971
UAUACG | 0.877
GAUGGC | 1.01

For quick reference, copied from above (set 3):
target | assay | remaining binding [%]
CILK1 (Homo sapiens, UniProt Q9UPZ9) | cell-free assay | 62
STK38 (Homo sapiens, UniProt Q15208) | cell-free assay | 87
CDKL1 (Homo sapiens, UniProt Q00532) | cell-free assay | 89
